Published values of several laboratories.
Compare with care: the assays were run in different laboratories. “And” joins repeats or separate records; there may be more than shown. ± gives the spread as reported. Converted amounts (≈) assume the structure as drawn.

SMILES | organism | test | test system | conditions | scale | measurement | value
O=c1[nH]cc(C(c2ccc3ccccc3c2)c2c[nH]c(=O)[nH]c2=O)c(=O)[nH]1 | Human immunodeficiency virus 1 | viral replication, inhibitor, ELISA | – | 1 µg/mL | – | inhibition | 22%
Nc1nc(-c2ccccc2)nc2[nH]nc(Nc3ccccc3)c12 | coxsackievirus B3 | viral cytopathic effect | HeLa | – | – | IC50 | 20 nM
COc1cc(CCO)ccc1O | Zika virus | viral replication, CCK-8 | Vero C1008 | 10 µM, 96 h | – | inhibition | 30.6 ± 2.74%
Nc1nc(-c2ccccc2)nc2[nH]nc(Nc3cccc(F)c3)c12 | coxsackievirus B3 | viral cytopathic effect | HeLa | – | – | IC50 | 200 nM
COc1cccc2c(-c3ccc(O)c4c3C[C@@H](C)N[C@@H]4C)c(C)cc(O)c12 | Plasmodium falciparum | asexual parasite proliferation, SYBR Green I fluorescence | 7G8 | – | – | IC50 | 10.2 ± 4.6 nM
C=C(NC(=O)c1csc(-c2nc3c(cc2O)-c2nc(cs2)C(=O)NC(C(C)O)C(=O)NC(=C(C)OC)c2nc(cs2)C(=O)NC2c4nc(cs4)C(=O)NC(COC(=O)c4c5c6c(cccc6n4O)COC(=O)C(OC4CC(C)(O)C(N(C)C)C(C)O4)C2OC5)c2nc-3cs2)n1)C(N)=O (centres unmarked) | Staphylococcus aureus | broth microdilution | methicillin-susceptible isolates | – | – | MIC90 | 0.0312 µg/mL (≈ 0.0217 µM)
FC(F)(F)c1cccc(CNc2nc(NC3CCN(Cc4ccccc4)CC3)c3nc[nH]c3n2)c1 | Cryptococcus neoformans | RNA-seq, measured: INM1 (CNAG_01823) mRNA | – | 48 µg/mL, 3 h | relative to: untreated wild type | log2 fold change | -0.323
COc1cccc2c(-c3ccc4c(c3O)[C@@H](C)N[C@H](C)C4)c(CO)cc(OC)c12 | Plasmodium falciparum | asexual parasite proliferation, SYBR Green I fluorescence | HB3 | – | – | IC50 | 15.5 ± 3.8 nM
C=C[C@]1(C)C[C@@H](OC(=O)CSc2ccc(NC(=O)c3ccco3)cc2)[C@]2(C)[C@H](C)CC[C@]3(CCC(=O)[C@H]32)[C@@H](C)[C@@H]1O | Mycoplasma gallisepticum | – | infected chickens, lung | intramuscular, 20 mg/kg daily x3, 72 h | – | lung mycoplasma count | 4.31 log10 CFU/mL and 4.27 log10 CFU/mL and 4.16 log10 CFU/mL and 3.98 log10 CFU/mL and 5.1 log10 CFU/mL and 4.57 log10 CFU/mL and 4.99 log10 CFU/mL and 5.74 log10 CFU/mL
COc1ccc(C(c2c[nH]c(=O)[nH]c2=O)c2c[nH]c(=O)[nH]c2=O)cc1 | Human immunodeficiency virus 1 | viral replication, inhibitor, ELISA | – | 1 µg/mL | – | inhibition | 5%
Cc1ccc(-c2nc(N)c3c(Nc4ccc(F)cc4)n[nH]c3n2)cc1 | rhinovirus B42 | viral cytopathic effect | HeLa | – | – | IC50 | 110 nM
CC1=N[C@H](C)Cc2c(-c3ccc(C)cc3)ccc(O)c21 | Plasmodium falciparum | asexual parasite proliferation, SYBR Green I fluorescence | Dd2 | – | – | IC50 | 653 ± 141 nM
COc1cc(Nc2n[nH]c3nc(-c4ccccc4)nc(N)c23)cc(OC)c1OC | coxsackievirus B3 | viral cytopathic effect | HeLa | – | – | IC50 | 2230 nM
COc1ccc(-c2cccc3ccccc23)c2c1C=NC(C)(C)C2 | Plasmodium falciparum | parasite growth, SYBR Green | NF54 | blood stage | – | IC50 | 14500 nM
O=c1[nH]cc(C(c2ccc(Cl)cc2Cl)c2c[nH]c(=O)[nH]c2=O)c(=O)[nH]1 | Human immunodeficiency virus 1 | viral replication, inhibitor, ELISA | – | 1 µg/mL | – | inhibition | 7%
Nc1nc(-c2ccccc2)nc2[nH]nc(Nc3c(F)cc(F)cc3F)c12 | rhinovirus B42 | viral cytopathic effect | HeLa | – | – | IC50 | 790 nM

SMILES | organism | test | test system | conditions | scale | measurement | value
CC[C@H](C)[C@H](NC(=O)[C@H](Cc1ccc(O)cc1)NC(=O)[C@H](CCC(=O)O)NC(=O)CNC(=O)[C@H](CCC(=O)O)NC(=O)[C@H](CCCCN)NC(=O)[C@H](CCCCN)NC(=O)[C@H](CC(=O)O)NC(=O)[C@H](Cc1c[nH]cn1)NC(=O)[C@H](Cc1c[nH]cn1)NC(=O)[C@H](Cc1c[nH]cn1)NC(=O)[C@H](Cc1c[nH]cn1)NC(=O)[C@H](Cc1c[nH]cn1)NC(=O)[C@H](Cc1c[nH]cn1)NC(=O)[C@H](Cc1c[nH]cn1)NC(=O)[C@H](Cc1c[nH]cn1)NC(=O)[C@H](Cc1c[nH]cn1)NC(=O)[C@@H](N)Cc1c[nH]cn1)C(=O)N[C@@H](CCCCN)C(=O)N[C@@H](CC(C)C)C(=O)N[C@@H](CCCCN)C(=O)N[C@H](C(=O)N[C@H](C(=O)NCC(=O)N[C@@H](CCC(N)=O)C(=O)N[C@@H](CC(=O)O)C(=O)N[C@@H](CO)C(=O)N[C@@H](CO)C(=O)N[C@@H](CCC(=O)O)C(=O)N[C@H](C(=O)N[C@@H](Cc1c[nH]cn1)C(=O)N[C@@H](Cc1ccccc1)C(=O)N[C@@H](CCCCN)C(=O)N[C@H](C(=O)N[C@@H](CCCCN)C(=O)N[C@@H](CCSC)C(=O)N[C@H](C(=O)N[C@H](C(=O)N[C@@H](Cc1c[nH]cn1)C(=O)N[C@@H](CC(C)C)C(=O)N[C@@H](CCCCN)C(=O)N[C@@H](CCCCN)C(=O)N[C@@H](CC(C)C)C(=O)N[C@@H](CCCCN)C(=O)N[C@@H](CCC(=O)O)C(=O)N[C@@H](CO)C(=O)N[C@@H](Cc1ccc(O)cc1)C(=O)N[C@@H](CS)C(=O)N[C@@H](CCC(N)=O)C(=O)N[C@@H](CCCNC(=N)N)C(=O)N[C@@H](CCC(N)=O)C(=O)O)[C@@H](C)O)[C@@H](C)O)C(C)C)[C@@H](C)CC)[C@@H](C)CC)C(C)C | Drosophila melanogaster | immunoblot | head | 120 µM, 15 days old | – | tyrosine hydroxylase level | increased
O=c1[nH]cc(C(c2ccc([N+](=O)[O-])cc2)c2c[nH]c(=O)[nH]c2=O)c(=O)[nH]1 | Human immunodeficiency virus 1 | viral replication, inhibitor, ELISA | – | 1 µg/mL | – | inhibition | 43%
Nc1nc(-c2ccc(Cl)cc2)nc2[nH]nc(Nc3ccc(F)cc3)c12 | rhinovirus B42 | viral cytopathic effect | HeLa | – | – | IC50 | 130 nM
CN(Cc1ccc(C2(C(F)(F)F)CCC2)cc1)Cc1cccc2ccccc12 | Trichophyton mentagrophytes | microbial growth, disc diffusion | ATCC18748 | 0.0005 µg/mL, 72 h | – | inhibition zone | 0 mm
COc1cc(C(c2c[nH]c(=O)[nH]c2=O)c2c[nH]c(=O)[nH]c2=O)cc(OC)c1OC | Human immunodeficiency virus 1 | viral replication, inhibitor, ELISA | – | 1 µg/mL | – | inhibition | 32%
COCCN(C)CC(=O)NC(Cc1ccc(-c2ccccc2)cc1)B(O)O (centres unmarked) | Plasmodium berghei | exoerythrocytic infection | HepG2, liver stage | 48 h | – | IC50 | 110 nM
C[C@@H](CO)C(=O)OCCc1ccc(O)cc1 | Zika virus | viral replication, CCK-8 | Vero C1008 | 10 µM, 96 h | – | inhibition | 19.6 ± 7.04%
Cc1cccc2c1N(C(=O)n1ccnn1)CC2 | Arabidopsis thaliana | – | wild type, seeds | 1 µM, high ambient temperature | – | germination rate | 7.5% and 92.3% and 86.2% and 81.5% and 85.2% and 6.3%
CC1=N[C@H](C)Cc2c(-c3ccc(Cl)cc3)ccc(O)c21 | Plasmodium falciparum | parasite growth, SYBR Green | NF54 | blood stage | – | IC50 | 22000 nM
Nc1nc(-c2ccccc2)nc2[nH]nc(Nc3ccc(Cl)cc3)c12 | coxsackievirus B3 | viral cytopathic effect | HeLa | – | – | IC50 | 120 nM
Cc1ncsc1-c1ccc(CNC(=O)[C@@H]2C[C@@H](O)CN2C(=O)[C@@H](NC(=O)CN2CCN(C3CN(CCNC(=O)C[C@@H]4N=C(c5ccc(Cl)cc5)c5c(sc(C)c5C)-n5c(C)nnc54)C3)CC2)C(C)(C)C)cc1 | Spodoptera frugiperda | degrader, targeted LC-MS, measured: BRD3 | Sf9 | 1 µM | – | protein level | 10.8% and 12.4% and 11.3%
CCc1ccc(-c2nc(N)c3c(Nc4ccc(F)cc4)n[nH]c3n2)cc1 | rhinovirus B42 | viral cytopathic effect | HeLa | – | – | IC50 | 500 nM
CNCc1ccc2c(c1)C[C@H](CNC(=N)N)[C@H]2NC(=O)C(=O)Nc1ccc(Cl)c(F)c1 | HIV-1 | pseudovirus infection, Env pseudovirus neutralisation | TZM-bl, clade B transmitted/founder | – | – | IC80 | 2210 nM
O=C(O)c1cccc(O)c1 | Streptomyces coelicolor | RT-PCR | – | 2 mM, 1 h | – | pcaH mRNA level | increased
COC1C=COC2(C)Oc3c(C)c(O)c4c(c3C2=O)C2=NC3(CCN(CC(C)C)CC3)NC2=C(NC(=O)C(C)=CC=CC(C)C(O)C(C)C(O)C(C)C(OC(=O)Nc2cnccn2)C1C)C4=O (centres unmarked) | Mycobacteroides abscessus | bacterial growth | subsp. massiliense 097 clinical isolate | rough, slow grower | – | IC50 | 27 nM
CC(C)(C)NCC(SS(=O)(=O)O)c1ccccc1 (centres unmarked) | Schistosoma mansoni | perfusion day 52 | infected Swiss Webster mice | 400 mg/kg single dose, 1248 h, dosed day 7 post-infection | relative to: vehicle control | spleen weight decrease | 14%
